# Assay results from different studies.
# Numbered parts are unrelated; each lists some results of a single study.
# UniProt P16220, sequence (whole entry, looked up): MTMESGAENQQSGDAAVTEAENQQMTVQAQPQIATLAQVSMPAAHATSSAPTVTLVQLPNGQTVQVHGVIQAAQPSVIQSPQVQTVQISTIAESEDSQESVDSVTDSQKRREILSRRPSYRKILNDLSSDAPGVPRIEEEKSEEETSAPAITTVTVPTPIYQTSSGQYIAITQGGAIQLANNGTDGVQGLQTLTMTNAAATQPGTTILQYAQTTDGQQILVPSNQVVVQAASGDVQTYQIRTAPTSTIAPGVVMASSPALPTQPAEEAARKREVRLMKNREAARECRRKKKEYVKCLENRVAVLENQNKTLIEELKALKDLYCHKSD
# UniProt P10914, sequence (1-114, looked up): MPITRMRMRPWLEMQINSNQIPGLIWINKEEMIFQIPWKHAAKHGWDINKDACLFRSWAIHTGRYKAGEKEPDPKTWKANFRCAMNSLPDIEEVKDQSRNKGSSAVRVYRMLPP

# Study 1 — cell line: HEK-293T/ACE2; tested at: concentration not given; time: 16 (unit not given); reference: vehicle
Structure (SMILES),viability
CN(C)CC(c1ccc(O)cc1)C1(O)CCCCC1 (stereo not drawn),106%
CN(C)C/C=C/C(=O)Nc1cc2c(Nc3ccc(F)c(Cl)c3)ncnc2cc1O[C@H]1CCOC1,84.1%
CCC1=C(C)CN(C(=O)NCCc2ccc(S(=O)(=O)NC(=O)N[C@H]3CC[C@H](C)CC3)cc2)C1=O,106%
CC(=O)N(O)CCCCCNC(=O)CCC(=O)N(O)CCCCCNC(=O)CCC(=O)N(O)CCCCCN,102%
CC(C)(C)NC(=O)[C@H]1CC[C@H]2[C@@H]3CC[C@H]4NC(=O)C=C[C@]4(C)[C@H]3CC[C@]12C,103%

# Study 2 — technique: RNAcompete; form: RNA; sample: in vitro; tested at: 20 nM; setting: 7-mer, probes averaged, single round; reference: mean of 7-mers; reading: higher = stronger binding
# Target: PABPC1L2, full length, GST fusion (mouse, UniProt A0ABA7IW68)
# Construct (chain): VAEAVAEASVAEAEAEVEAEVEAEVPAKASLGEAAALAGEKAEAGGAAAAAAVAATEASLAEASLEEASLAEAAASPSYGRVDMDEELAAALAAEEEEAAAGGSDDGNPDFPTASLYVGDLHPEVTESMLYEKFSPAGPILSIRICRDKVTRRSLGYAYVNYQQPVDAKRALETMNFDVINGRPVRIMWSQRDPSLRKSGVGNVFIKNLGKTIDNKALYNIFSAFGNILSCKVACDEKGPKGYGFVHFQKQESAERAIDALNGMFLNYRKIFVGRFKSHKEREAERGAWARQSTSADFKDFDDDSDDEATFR
Sequence,7-mer Z-score
AACAAAU,1.41
GCUUGCU,-0.427
GGCGAGU,0.0315
AUUGUAA,0.0859
AAGGUCA,0.00798
AACGCUA,-0.108
UCGUCAA,-0.287
UAAUUUC,-0.378

# Study 3 — observed: enzyme activity; mode: inhibitor; setting: with DTT
# Target: Replicase polyprotein 1ab, main protease (rep, Severe acute respiratory syndrome coronavirus 2, UniProt P0DTD1)
SMILES,IC50
C[C@@H](CN1CC(=O)NC(=O)C1)N1CC(=O)NC(=O)C1,0.25 µM
O=C(/C=C/c1ccc(O)c(O)c1)O[C@H](Cc1ccc(O)c(O)c1)C(=O)O,> 20 µM
COc1cc(N(C)C)cc(CN(C)CCc2ccc([N+](=O)[O-])cc2)c1O,> 20 µM
Oc1ccc(C2CNCCc3c2cc(O)c(O)c3Cl)cc1 (stereo not drawn),> 20 µM

# Study 4 — mode: inhibitor; tested at: 20 µM
# Target: Replicase polyprotein 1ab, nsp13 helicase (rep, Severe acute respiratory syndrome coronavirus 2, UniProt P0DTD1)
SMILES,inhibition [%]
Cc1ncc(NC(=O)c2ccc(CN3CCN(C)CC3)c(C(F)(F)F)c2)cc1Nc1nccc(-c2cccnc2)n1,1.55
Cn1cc(-c2cnn3c(N)c(Br)c([C@@H]4CCCNC4)nc23)cn1,21
CCC1=C[C@@H]2CN(C1)Cc1c([nH]c3ccccc13)[C@@](C(=O)OC)(c1cc3c(cc1OC)N(C)[C@H]1[C@@](O)(C(=O)OC)[C@H](OC(C)=O)[C@]4(CC)C=CCN5CC[C@]31[C@@H]54)C2,2.93
CNc1ncc2cc(-c3cc(NC(=O)NCCC(C)(C)C)c(F)cc3C)c(C)nc2n1,5.91
C/C1=C/C[C@@H](/C(C)=C/c2csc(C)n2)OC(=O)C[C@H](O)C(C)(C)C(=O)[C@H](C)[C@@H](O)[C@@H](C)CCC1,5.24
CC(=O)O[C@]1(C(C)=O)CC[C@H]2[C@@H]3C=C(Cl)C4=CC(=O)CC[C@]4(C)[C@H]3CC[C@@]21C,1.71
O=Cc1ccc(CO)o1,-2.16
Cn1c(C#N)ccc1-c1ccc2c(c1)C(C)(C)OC(=S)N2,4.14
Nc1ncnc2c1ncn2[C@@H]1O[C@H](COP(=O)(O)OP(=O)(O)OP(=O)(O)OP(=O)(O)OC[C@H]2O[C@@H](n3cnc4c(N)ncnc43)[C@H](O)[C@@H]2O)[C@@H](O)[C@H]1O,1.07
O=C(O)c1cn(C2CC2)c2cc(N3CCNCC3)c(F)cc2c1=O,2.73
NC1(C(=O)O)CC1,6.77
CCCCn1ccc(N2CCC(c3ccccc3)CC2)c(Cl)c1=O,6.99
CCC(=O)c1cc(-c2ccc(Cl)cc2)n(-c2ccc(S(N)(=O)=O)cc2)c1C,-1.42

# Other studies, line by line — technique: protein-binding microarray; form: hairpin DNA; sample: in vitro; tested at: not given; reference: not given; reading: higher = stronger binding
# Setting: whole hairpin DNA, median over replicate spots
Sequence,target,median fluorescence [a.u.]
GAGGCCTGTTGCGATTGGCCTCCTGGCCAATCGCAACAGGCCTCACACTC,"Runt-related transcription factor 1, full length (RUNX1, Homo sapiens, UniProt Q01196-8, residues 1-480)",1660
GAGGCCGGCAGACGTCAGCCTCCTGGCTGACGTCTGCCGGCCTCACACTC,"Cyclic AMP-responsive element-binding protein 1, full length (CREB1, Homo sapiens, UniProt P16220, residues 1-327)",4370
GAGGCCCGAAAGCAAAACGCCTCCTGGCGTTTTGCTTTCGGGCCTCACAC,"Interferon regulatory factor 1, DNA-binding domain (IRF1, Homo sapiens, UniProt P10914, residues 1-114)",560

# For quick reference, copied from above (study 2):
Sequence,7-mer Z-score
AACAAAU,1.41
AUUGUAA,0.0859
